Measurements pooled from the literature.
Every numbered part comes from another study and shows a few of its results, in no order. Substitutions count along the parent as printed.

Series 1 — technique: universal PBM; form: double-stranded DNA, one strand shown; matrix: in vitro; concentration: 600 nM; reading: higher = stronger binding; measurement: E-score
Target: Sal-like protein 4, full length isoform A (SALL4, Homo sapiens, UniProt Q9UJQ4, residues 1-1053)
Chain of UniProt Q9UJQ4 (whole entry, looked up): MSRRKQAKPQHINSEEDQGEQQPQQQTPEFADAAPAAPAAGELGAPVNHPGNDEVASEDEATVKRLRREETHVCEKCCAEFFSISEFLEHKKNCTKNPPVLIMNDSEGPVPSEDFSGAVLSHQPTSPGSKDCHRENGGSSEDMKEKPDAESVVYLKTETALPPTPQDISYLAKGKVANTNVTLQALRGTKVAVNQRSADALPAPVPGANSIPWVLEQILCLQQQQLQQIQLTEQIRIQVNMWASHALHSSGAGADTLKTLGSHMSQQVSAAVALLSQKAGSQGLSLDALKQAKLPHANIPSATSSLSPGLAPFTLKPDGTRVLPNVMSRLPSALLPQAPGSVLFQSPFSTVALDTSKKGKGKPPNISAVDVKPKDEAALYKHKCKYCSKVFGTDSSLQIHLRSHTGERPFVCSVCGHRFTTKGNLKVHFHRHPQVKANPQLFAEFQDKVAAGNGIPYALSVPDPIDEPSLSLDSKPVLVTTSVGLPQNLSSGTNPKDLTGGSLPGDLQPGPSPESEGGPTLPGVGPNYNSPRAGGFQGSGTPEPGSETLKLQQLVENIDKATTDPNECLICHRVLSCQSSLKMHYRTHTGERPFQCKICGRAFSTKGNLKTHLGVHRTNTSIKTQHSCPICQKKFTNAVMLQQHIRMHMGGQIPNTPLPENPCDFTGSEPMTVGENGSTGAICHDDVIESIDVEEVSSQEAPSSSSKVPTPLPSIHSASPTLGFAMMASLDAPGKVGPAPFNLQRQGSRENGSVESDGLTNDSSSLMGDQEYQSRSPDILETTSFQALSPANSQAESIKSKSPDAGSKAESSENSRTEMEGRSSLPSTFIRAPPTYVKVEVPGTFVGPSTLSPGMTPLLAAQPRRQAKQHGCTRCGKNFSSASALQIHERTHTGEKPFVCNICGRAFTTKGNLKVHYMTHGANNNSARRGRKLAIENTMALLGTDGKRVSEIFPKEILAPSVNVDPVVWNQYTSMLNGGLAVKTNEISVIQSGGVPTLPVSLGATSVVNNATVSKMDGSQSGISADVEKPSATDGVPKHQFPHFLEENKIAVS
Setting: 8-mer, flanks averaged, mean of replicates
GGCTTTCA: -0.036
ACTTGACG: -0.048
AAACACAA: 0.24
AGCAAAGC: 0.0801
AGAGCTGG: -0.21
AAGGTTAG: 0.0682
CTTCGTTC: -0.0532
CCGTCCCC: -0.397
CCCTCGGA: -0.223
AGTCGGCC: -0.275
ATGCCCCC: -0.253
GGAGACCA: -0.201
CCGCGCCA: -0.259
CCAACTCC: -0.0614
AACGGCCG: -0.21
AGCCTGAC: -0.237
CACGGGCA: -0.274
CGTGAGTA: -0.0706

Series 2 — technique: RNA Bind-n-Seq; form: RNA; matrix: in vitro; concentration: 1 µM; setting: whole 134-nt RNA, ends assumed; together with: 150 mM KCl; reference: input library; reading: higher = stronger binding; measurement: log2 enrichment
Target: Ras GTPase-activating protein-binding protein 1, RRM domain (G3BP1, Homo sapiens, UniProt Q13283)
Chain of UniProt Q13283 (whole entry, looked up): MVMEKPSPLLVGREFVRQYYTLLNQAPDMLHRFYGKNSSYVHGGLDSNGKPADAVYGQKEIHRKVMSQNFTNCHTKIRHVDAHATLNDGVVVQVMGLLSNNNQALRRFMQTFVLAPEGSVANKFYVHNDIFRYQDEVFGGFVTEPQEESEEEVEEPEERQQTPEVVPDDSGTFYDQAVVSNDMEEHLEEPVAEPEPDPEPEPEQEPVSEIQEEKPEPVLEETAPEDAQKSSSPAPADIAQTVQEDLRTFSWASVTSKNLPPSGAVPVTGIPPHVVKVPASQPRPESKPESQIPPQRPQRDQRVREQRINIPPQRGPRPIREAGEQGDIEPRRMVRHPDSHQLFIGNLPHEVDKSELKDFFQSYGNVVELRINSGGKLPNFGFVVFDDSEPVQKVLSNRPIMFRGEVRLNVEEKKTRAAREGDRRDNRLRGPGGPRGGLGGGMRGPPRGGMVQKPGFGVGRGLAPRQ
Constant ends, left off below: GGGAGUUCUACAGUCCGACGAUC … UGGAAUUCUCGGGUGUCAAGG
UGGUGGACCCGCAGCAGCUGGGCAUGUUCACGGAGGGCGAGCUGAUGUCGGUGGGUAUGGACACGUUCAUCCACCGCAUCGACUCCACCG: -0.58
CUGUGCUACACAUCGUAUGUACCGAAUCGGGUUUUUUUGGGUUUUUUUGGGUUUUUUUGGGGAAAGUAUUAUGUUACGCCGUUCGGAUCU: -0.0816
CAAGUCCUGUGCUACACAUCGUAUGUACCGAAUCGGGAGGGUUUUUGGGAAAGGGAAAGUAUUAUGUUACGCCGUUCGGAUCUGCACUUC: 0.703
AAGUCCUGUGCUACACAUCGUAUGUACCGAAUCAAAUUUAAAUUUUUAAAUUUAAAAAAGUAUUAUGUUACGCCGUUCGGAUCUGCACUU: -0.835
CAAGUCCUGUGCUACACAUCGUAUGUACCGAAUCGGAAAGGUUUUUUUGGUUUGGAAAGUAUUAUGUUACGCCGUUCGGAUCUGCACUUC: -0.489
CAAGUCCUGUGCUACACAUCGUAUGUACCGAAUCGGUUUGGAAAGGAAAAAAAGGAAAGUAUUAUGUUACGCCGUUCGGAUCUGCACUUC: -0.0883
CUGUGCUACACAUCGUAUGUACCGAAUCGGGCCCCCCCGGGCCCCCCCGGCCCCCCCGGGGAAAGUAUUAUGUUACGCCGUUCGGAUCUG: -0.766
UUUCUCCAUUGCAGGAAGUUGGCAGUAUCAUCGGAAAGGUAAGACAAUUUCACUUCAACUUCAAUUACCAUUUAGUAAUUCUGGAUUGAA: -0.221
UGGCCCUGGUGGCAUGCGGGGAGGAAGCGGUGGCCUCAUGGAUCGUGGUGGUCCCGGUGGAAUGUUCAGAGGUGGCCGUGGUGGAGACAG: 0.77

Series 3 — technique: protein-binding microarray; form: double-stranded DNA, one strand shown; matrix: in vitro; concentration: 250 nM; setting: 60-bp whole probe; together with: salmon DNA 0.4 mg/ml; reference: random background probes; reading: higher = stronger binding; measurement: log fluorescence; constant ends, left off below: GCCTAGCAC … GTCTTGATTCGCTTGACGCTGCTG
Target: Interferon regulatory factor 7, full length, phosphomimetic (IRF7, Homo sapiens, UniProt Q92985, residues 1-503, S101K/S471D/S472D/S475D/S476D/S477D/S483D/S484D/S487D)
Construct (chain): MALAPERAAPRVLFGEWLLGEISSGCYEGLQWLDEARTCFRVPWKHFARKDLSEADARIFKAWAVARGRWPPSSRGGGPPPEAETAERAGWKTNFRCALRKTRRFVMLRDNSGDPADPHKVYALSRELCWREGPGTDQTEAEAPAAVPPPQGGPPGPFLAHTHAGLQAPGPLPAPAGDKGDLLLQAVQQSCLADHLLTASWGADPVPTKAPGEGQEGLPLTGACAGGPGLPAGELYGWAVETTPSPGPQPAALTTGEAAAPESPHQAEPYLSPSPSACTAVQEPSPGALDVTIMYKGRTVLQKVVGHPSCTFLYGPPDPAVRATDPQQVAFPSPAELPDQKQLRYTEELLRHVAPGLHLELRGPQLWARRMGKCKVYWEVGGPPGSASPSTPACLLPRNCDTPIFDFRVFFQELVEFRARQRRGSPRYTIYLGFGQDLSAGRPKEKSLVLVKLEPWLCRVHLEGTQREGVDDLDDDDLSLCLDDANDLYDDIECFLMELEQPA
TTAGAACTGTGGTATCGATTAGTGCTA: 0.627 z-score
TTAGGACTGGATACTGGGTTAGTGCTA: -0.714 z-score
TAAGGTTTCGGTTCCGGTTAGTGCTAG: 13 z-score
CATTATATTTTAATCACATAGTGCTAG: 1.07 z-score
TTAGGTATCGGGCTTCGGTTAGTGCTA: 0.0884 z-score
TTCCCAATGGTCTTTCCACTTGTGCTA: 1.23 z-score
TTAGATTTCAGACCGGATTAGTGCTAG: 0.39 z-score
TCAGCTTTCTTTTTGCAACTGTGCTAG: 0.974 z-score
GACGGTTTCGATTTTCGGGACGTGCTA: 13.4 z-score
TCAAAAAAAAAAAACTGTACTGTGCTA: 0.607 z-score
TCAAGCCTCAGGCCTCACACTGTGCTA: -0.621 z-score
TCAACCATCCTATGTAGAACTGTGCTA: 0.232 z-score
TTAGAACTGAGTATCGTTTAGTGCTAG: 0.84 z-score
AAGGAAGGACCATCCAGAGAGTGCTAG: -0.115 z-score
AACGATTTCAGTATCGAGACGTGCTAG: 0.498 z-score
TTAGATATCAGTATCGATTTGTGCTAG: 3.28 z-score
TCACATATTTGTTTCCAACTGTGCTAG: 1.23 z-score
TACATTTTCCAAATGCCCCTGTGCTAG: 1.26 z-score
TTAGGTTACGGTTTCGGTTAGTGCTAG: 9.18 z-score

Series 4 — target: CCND1, cyclin fold, Cln2 fusion (human); technique: yeast growth competition, sequencing; matrix: yeast; setting: weak parent motif; reference: not given; reading: higher = stronger binding; measurement: normalised enrichment score
Starting sequence: SLBP docking peptide (human); ARYKRKLLINDFG; partner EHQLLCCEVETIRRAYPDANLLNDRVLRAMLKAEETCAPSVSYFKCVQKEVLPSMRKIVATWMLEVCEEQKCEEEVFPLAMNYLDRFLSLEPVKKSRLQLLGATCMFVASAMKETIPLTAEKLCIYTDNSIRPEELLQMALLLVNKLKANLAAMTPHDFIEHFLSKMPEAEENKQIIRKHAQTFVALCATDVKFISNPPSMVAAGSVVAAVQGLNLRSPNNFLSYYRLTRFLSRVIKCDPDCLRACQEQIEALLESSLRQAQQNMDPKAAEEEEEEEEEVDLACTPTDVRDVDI
ERYKRKLLINDFG [A1E]: -0.277
ARYKRDLLINDFG [K6D]: -0.328
ARYKRKLLINDDG [F12D]: -0.082
ARYKRKLLPNDFG [I9P]: 0.395
CRYKRKLLINDFG [A1C]: -0.0263
ARYKRKVLINDFG [L7V]: -0.403
ARYKRKLLINAFG [D11A]: 0.608
ARYKRKTLINDFG [L7T]: -0.378
ARYKRKLLWNDFG [I9W]: 0.164
ARYKRKLLTNDFG [I9T]: -0.0449
ARYKRKQLINDFG [L7Q]: 0.0632
ARYKRKLLDNDFG [I9D]: -0.402
ARYKRKLEINDFG [L8E]: 0.273
ARYKRKCLINDFG [L7C]: 0.12
ARYKRKLSINDFG [L8S]: -0.366
ARYKRKLLINDCG [F12C]: -0.2
ARYKRKLYINDFG [L8Y]: -0.216
ARYKAKLLINDFG [R5A]: 0.228
ARYKRKLPINDFG [L8P]: -0.0685
IRYKRKLLINDFG [A1I]: -0.224
MRYKRKLLINDFG [A1M]: 0.221
ARYKLKLLINDFG [R5L]: 0.677
ARYKRKLLIMDFG [N10M]: 0.124
ARDKRKLLINDFG [Y3D]: 0.268
ARYKRHLLINDFG [K6H]: -0.871
